Measured values pooled from the literature.
Every numbered part comes from another study and shows a few of its results, in no order. “And” joins repeats or separate records; there may be more than shown.
UniProt Q8IVH8, sequence (whole entry, looked up): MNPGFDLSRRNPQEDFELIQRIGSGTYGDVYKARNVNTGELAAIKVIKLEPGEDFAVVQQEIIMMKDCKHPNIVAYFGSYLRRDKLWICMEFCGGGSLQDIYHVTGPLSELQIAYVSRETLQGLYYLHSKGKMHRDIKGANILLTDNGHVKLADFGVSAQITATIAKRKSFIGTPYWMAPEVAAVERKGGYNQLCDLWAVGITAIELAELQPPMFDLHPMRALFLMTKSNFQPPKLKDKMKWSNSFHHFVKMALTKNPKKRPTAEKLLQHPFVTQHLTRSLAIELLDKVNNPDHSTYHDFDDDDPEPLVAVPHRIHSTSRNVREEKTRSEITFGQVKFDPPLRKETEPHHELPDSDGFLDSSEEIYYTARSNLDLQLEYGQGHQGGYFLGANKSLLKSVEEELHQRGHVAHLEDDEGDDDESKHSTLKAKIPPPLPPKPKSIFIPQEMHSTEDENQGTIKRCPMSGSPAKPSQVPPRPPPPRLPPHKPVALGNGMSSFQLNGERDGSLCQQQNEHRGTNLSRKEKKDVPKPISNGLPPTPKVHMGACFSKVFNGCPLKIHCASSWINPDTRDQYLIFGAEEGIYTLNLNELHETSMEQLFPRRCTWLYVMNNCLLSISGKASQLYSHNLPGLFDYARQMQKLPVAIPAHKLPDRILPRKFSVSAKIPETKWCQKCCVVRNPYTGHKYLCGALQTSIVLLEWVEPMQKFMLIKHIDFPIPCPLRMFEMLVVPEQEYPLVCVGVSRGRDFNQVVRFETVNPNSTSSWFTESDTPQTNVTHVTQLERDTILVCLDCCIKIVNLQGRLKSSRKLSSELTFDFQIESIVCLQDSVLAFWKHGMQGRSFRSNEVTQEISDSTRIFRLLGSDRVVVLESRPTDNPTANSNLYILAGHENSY
UniProt P08069, sequence (whole entry, looked up): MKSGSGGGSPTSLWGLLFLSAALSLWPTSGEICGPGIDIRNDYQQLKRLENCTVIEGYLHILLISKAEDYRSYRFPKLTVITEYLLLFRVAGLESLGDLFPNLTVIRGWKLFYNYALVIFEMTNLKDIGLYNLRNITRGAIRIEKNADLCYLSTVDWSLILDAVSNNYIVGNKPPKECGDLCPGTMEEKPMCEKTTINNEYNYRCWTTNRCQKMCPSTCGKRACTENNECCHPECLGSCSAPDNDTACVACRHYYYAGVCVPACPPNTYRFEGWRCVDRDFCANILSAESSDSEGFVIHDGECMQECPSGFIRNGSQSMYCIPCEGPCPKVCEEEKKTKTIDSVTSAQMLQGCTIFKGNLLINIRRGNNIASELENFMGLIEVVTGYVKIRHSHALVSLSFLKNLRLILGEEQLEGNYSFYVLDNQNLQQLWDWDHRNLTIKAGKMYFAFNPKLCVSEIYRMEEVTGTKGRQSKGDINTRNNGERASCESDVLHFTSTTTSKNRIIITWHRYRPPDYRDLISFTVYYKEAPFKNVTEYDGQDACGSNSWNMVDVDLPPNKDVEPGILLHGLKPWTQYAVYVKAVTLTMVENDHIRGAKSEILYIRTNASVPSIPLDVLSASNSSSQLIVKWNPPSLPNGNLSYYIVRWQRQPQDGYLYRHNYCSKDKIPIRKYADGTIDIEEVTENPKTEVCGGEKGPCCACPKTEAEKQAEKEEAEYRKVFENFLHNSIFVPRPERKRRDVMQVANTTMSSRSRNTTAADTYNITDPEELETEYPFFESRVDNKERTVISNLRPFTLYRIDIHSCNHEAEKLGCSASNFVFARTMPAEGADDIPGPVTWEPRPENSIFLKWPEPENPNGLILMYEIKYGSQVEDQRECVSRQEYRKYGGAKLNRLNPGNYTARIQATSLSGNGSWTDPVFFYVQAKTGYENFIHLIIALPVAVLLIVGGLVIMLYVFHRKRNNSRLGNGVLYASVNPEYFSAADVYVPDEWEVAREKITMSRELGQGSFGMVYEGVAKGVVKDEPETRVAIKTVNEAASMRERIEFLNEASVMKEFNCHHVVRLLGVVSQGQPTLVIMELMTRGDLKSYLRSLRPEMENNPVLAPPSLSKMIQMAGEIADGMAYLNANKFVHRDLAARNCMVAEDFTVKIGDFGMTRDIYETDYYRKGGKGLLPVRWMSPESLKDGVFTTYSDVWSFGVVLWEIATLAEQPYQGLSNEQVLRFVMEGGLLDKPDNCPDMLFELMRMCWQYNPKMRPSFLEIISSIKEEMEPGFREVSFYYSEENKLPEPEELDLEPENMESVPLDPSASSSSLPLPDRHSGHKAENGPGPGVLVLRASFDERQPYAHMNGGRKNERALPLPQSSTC
UniProt P07949, sequence (whole entry, unmodified, looked up): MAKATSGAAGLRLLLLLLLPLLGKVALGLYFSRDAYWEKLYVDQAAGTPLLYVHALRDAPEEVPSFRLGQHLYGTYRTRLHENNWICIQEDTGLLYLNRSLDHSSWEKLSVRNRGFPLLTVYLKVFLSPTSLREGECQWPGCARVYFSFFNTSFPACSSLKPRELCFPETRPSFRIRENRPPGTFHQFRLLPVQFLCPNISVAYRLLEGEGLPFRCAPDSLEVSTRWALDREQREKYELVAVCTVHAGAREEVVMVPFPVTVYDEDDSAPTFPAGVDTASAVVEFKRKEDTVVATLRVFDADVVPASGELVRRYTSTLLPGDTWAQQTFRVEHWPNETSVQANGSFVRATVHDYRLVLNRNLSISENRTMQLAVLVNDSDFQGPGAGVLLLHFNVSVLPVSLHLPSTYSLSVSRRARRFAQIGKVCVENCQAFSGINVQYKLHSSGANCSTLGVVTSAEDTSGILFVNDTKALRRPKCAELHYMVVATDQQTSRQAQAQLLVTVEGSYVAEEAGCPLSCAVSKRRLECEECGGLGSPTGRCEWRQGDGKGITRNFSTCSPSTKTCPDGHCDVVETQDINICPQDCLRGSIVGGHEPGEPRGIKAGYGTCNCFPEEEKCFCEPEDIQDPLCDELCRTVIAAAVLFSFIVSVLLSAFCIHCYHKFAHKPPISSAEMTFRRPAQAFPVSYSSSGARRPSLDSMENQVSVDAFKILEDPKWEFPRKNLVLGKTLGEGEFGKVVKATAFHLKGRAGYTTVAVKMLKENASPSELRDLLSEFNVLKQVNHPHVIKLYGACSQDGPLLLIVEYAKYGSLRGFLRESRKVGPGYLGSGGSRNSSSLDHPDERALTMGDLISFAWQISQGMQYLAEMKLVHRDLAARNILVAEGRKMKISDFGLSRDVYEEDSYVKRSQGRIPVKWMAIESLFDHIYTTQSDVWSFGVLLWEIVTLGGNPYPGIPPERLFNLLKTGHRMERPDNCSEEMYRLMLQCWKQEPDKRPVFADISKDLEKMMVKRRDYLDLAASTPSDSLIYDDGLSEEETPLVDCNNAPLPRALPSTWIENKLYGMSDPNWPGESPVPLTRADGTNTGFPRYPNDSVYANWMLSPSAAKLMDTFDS
UniProt P27361, sequence (whole entry, looked up): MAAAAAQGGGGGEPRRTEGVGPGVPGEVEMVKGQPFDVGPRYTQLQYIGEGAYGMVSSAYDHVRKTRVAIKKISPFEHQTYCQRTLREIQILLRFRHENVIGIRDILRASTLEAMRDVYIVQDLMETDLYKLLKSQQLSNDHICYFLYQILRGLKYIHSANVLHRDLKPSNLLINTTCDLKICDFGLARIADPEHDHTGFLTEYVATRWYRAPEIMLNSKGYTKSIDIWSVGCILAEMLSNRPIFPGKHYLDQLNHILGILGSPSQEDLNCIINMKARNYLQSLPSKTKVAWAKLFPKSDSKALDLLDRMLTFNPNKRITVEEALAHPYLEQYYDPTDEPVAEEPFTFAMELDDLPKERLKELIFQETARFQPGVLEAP
UniProt Q9NYL2, sequence (whole entry, looked up): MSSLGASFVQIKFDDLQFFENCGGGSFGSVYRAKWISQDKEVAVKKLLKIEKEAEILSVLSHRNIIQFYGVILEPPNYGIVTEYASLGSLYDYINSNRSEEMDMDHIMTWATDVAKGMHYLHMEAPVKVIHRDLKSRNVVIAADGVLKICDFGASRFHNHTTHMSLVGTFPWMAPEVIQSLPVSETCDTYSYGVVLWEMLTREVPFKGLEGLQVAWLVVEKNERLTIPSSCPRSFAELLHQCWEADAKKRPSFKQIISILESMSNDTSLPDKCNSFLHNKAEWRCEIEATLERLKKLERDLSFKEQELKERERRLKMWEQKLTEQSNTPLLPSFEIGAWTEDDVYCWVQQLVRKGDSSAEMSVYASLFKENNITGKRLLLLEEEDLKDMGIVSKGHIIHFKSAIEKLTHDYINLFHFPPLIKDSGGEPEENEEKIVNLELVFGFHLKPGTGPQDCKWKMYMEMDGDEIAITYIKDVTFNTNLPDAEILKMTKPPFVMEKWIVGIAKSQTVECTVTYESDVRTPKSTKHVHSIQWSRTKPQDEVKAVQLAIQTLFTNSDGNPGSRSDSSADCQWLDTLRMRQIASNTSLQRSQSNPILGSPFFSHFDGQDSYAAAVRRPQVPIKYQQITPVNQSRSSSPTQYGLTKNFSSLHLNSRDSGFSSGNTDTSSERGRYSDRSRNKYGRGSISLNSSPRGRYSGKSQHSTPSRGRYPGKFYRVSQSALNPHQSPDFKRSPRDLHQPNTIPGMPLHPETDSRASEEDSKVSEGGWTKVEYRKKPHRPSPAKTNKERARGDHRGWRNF
UniProt P50613, sequence (whole entry, looked up): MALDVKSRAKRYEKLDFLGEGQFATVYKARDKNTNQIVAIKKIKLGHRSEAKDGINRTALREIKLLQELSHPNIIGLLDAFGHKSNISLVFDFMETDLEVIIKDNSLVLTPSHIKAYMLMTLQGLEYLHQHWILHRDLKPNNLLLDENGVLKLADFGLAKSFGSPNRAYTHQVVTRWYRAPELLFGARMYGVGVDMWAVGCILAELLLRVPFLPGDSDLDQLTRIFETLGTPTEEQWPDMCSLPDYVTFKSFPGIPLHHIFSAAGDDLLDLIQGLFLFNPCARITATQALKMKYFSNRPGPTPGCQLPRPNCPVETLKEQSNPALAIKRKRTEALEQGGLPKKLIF

Set 1
Species: human
Sample: microsomes or S9
Concentration: 2 µM
Time: 0.5 h
SMILES	remaining compound [%]
Cc1cc(-c2cc(=O)[nH]c3nc4ccccc4n23)n(C)n1	70.4
CC1(C)CC(S(=O)(=O)CC2(C)CC(c3ccc(Br)o3)=NO2)=NO1 (stereo not shown)	> 99
COc1ccc(CNC(=O)c2oc3ccc4c(c3c2C)C=CC(C)(C)O4)cc1OC	82.2
COc1cc(=O)n2c(c1C(=O)Nc1ccc3c(c1)OCCO3)CCCC2	85
CCOc1ccccc1NC(=O)N1Cc2c(sc3c2CCCC3)-n2cccc2C1c1ccc(N(C)C)cc1 (stereo not shown)	36.5

Set 2
SMILES: O=C(Nc1cnn(-c2csc(C(=O)NC3COC3)c2)c1)Nc1ccccc1Cl
Observed: enzyme activity
Concentration: 5 µM
Relative to: untreated control
target	remaining activity
Dual specificity testis-specific protein kinase 1 (TESK1, Homo sapiens, UniProt Q15569)	101%
Mitogen-activated protein kinase kinase kinase 20 (MAP3K20, Homo sapiens, UniProt Q9NYL2)	98.5%
Testis-specific serine/threonine-protein kinase 3 (TSSK3, Homo sapiens, UniProt Q96PN8)	97.6%
Ribosomal protein S6 kinase alpha-4 (RPS6KA4, Homo sapiens, UniProt O75676)	90.6%
Epidermal growth factor receptor (EGFR, Homo sapiens, UniProt P00533)	98.7%
Serine/threonine-protein kinase PLK2 (PLK2, Homo sapiens, UniProt Q9NYY3)	85.3%

Set 3
Structure (SMILES): CC(=O)N[C@@H](Cc1c[nH]c2ccccc12)C(=O)N[C@@H](CCC(=O)C=[N+]=[N-])C(=O)OC(C)C
Species: C57BL/6 CES1-/- mice, EL4 tumour
Sample: EL4 tumour
Route: subcutaneous
Dose: 0.3 mg/kg/day DON equivalent
Time: 5 days
Setting: normalised to tissue mass
Reading: higher = more metabolite
technique	measured	metabolite peak intensity
UPLC-MS/MS metabolomics	N-acetylphenylalanine	86900 a.u. and 101000 a.u. and 112000 a.u. and 85600 a.u. and 73500 a.u.
LC-MS/MS metabolomics	3-amino-2-piperidone	1.43e+06 a.u. and 778000 a.u. and 700000 a.u. and 794000 a.u. and 996000 a.u. and 953000 a.u.
LC-MS/MS metabolomics	4-hydroxynonenal-glutathione	201000 a.u. and 227000 a.u. and 77300 a.u. and 259000 a.u. and 443000 a.u. and 404000 a.u.

Set 4
SMILES: C[C@H](NC(=O)c1cnc2n1[C@](C)(Cc1ccc(C#N)cc1)C(=O)N2c1cc(Cl)c(F)c(Cl)c1)C(=O)NC1(c2ccccn2)CC1
Observed: cell-free assay
Technique: competition with immobilised ligand
Concentration: 1 µM
target	remaining binding [%]
Macrophage colony-stimulating factor 1 receptor (CSF1R, Homo sapiens, UniProt P07333)	100
Proto-oncogene tyrosine-protein kinase receptor Ret (RET, Homo sapiens, UniProt P07949, V804M)	100
Mitogen-activated protein kinase kinase kinase 7 (MAP3K7, Homo sapiens, UniProt O43318)	97
Epidermal growth factor receptor (EGFR, Homo sapiens, UniProt P00533, G719C)	100
Tyrosine-protein kinase ABL1, non-phosphorylated (ABL1, Homo sapiens, UniProt P00519, T315I)	85
Insulin-like growth factor 1 receptor (IGF1R, Homo sapiens, UniProt P08069)	99
Mitogen-activated protein kinase kinase kinase kinase 3 (MAP4K3, Homo sapiens, UniProt Q8IVH8)	100
Protein-tyrosine kinase 2-beta (PTK2B, Homo sapiens, UniProt Q14289)	100
Cyclin-dependent kinase 7 (CDK7, Homo sapiens, UniProt P50613)	94
Tyrosine-protein kinase receptor TYRO3 (TYRO3, Homo sapiens, UniProt Q06418)	100
LIM domain kinase 1 (LIMK1, Homo sapiens, UniProt P53667)	100
Ribosomal protein S6 kinase alpha-5, C-terminal kinase domain (RPS6KA5, Homo sapiens, UniProt O75582)	100
Mitogen-activated protein kinase 3 (MAPK3, Homo sapiens, UniProt P27361)	91

Mixed results
SMILES	cell line	technique	concentration	measurement	value
CC(C)(C)c1cnc(CSc2cnc(NC(=O)C3CCN(CCCCSc4cccc5c4C(=O)N(C4CCC(=O)NC4=O)C5=O)CC3)s2)o1 (stereo not shown)	HH	CCK-8	100 nM	viability	100%

A few entries again (set 2):
target	remaining activity
Testis-specific serine/threonine-protein kinase 3 (TSSK3, Homo sapiens, UniProt Q96PN8)	97.6%
Ribosomal protein S6 kinase alpha-4 (RPS6KA4, Homo sapiens, UniProt O75676)	90.6%
